# Results from different studies.
# Compare with care: the assays were run in different laboratories. Values joined by “and” are separate records of one study, mostly repeats; a detail may differ. ± gives the spread as reported.
# GUK1: GUK1 (Homo sapiens, UniProt Q16774)
# Sequence of UniProt Q16774 (whole entry, looked up): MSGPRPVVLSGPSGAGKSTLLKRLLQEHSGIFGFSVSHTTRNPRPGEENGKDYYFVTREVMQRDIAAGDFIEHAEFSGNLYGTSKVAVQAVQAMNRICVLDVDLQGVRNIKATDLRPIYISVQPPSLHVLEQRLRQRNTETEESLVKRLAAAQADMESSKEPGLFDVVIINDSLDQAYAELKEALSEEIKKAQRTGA
# XPO1: Exportin-1 (XPO1, Homo sapiens, UniProt O14980)
# Sequence of UniProt O14980 (whole entry, looked up): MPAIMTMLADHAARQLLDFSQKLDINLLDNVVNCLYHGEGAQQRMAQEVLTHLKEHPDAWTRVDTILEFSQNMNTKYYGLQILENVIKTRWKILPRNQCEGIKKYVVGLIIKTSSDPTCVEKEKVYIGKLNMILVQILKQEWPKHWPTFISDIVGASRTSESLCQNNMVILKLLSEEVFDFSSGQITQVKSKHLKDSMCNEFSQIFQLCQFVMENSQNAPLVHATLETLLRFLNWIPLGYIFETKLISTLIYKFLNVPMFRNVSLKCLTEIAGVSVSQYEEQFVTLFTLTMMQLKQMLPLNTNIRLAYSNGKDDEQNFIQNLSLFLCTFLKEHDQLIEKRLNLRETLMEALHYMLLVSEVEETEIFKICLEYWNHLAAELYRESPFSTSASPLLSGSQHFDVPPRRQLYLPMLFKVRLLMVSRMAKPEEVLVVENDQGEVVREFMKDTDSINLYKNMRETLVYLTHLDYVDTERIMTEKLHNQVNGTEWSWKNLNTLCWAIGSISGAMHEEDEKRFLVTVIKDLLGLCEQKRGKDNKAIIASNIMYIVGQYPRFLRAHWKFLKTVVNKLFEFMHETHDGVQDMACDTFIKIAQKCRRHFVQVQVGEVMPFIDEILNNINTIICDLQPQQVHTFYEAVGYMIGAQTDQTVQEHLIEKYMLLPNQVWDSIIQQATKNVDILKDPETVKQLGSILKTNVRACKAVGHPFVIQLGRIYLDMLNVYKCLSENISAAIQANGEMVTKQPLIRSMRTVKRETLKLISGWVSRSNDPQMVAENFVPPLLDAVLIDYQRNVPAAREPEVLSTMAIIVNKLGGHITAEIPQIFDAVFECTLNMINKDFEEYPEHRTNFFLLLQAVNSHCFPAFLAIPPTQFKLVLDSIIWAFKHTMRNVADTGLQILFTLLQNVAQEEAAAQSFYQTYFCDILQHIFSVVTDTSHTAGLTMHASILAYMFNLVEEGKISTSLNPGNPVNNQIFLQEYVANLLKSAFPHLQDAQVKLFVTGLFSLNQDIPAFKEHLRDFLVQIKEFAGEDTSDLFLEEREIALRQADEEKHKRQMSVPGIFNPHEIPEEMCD
# TOP2A: DNA topoisomerase 2-alpha (TOP2A, Homo sapiens, UniProt P11388)
# Sequence of UniProt P11388 (whole entry, looked up): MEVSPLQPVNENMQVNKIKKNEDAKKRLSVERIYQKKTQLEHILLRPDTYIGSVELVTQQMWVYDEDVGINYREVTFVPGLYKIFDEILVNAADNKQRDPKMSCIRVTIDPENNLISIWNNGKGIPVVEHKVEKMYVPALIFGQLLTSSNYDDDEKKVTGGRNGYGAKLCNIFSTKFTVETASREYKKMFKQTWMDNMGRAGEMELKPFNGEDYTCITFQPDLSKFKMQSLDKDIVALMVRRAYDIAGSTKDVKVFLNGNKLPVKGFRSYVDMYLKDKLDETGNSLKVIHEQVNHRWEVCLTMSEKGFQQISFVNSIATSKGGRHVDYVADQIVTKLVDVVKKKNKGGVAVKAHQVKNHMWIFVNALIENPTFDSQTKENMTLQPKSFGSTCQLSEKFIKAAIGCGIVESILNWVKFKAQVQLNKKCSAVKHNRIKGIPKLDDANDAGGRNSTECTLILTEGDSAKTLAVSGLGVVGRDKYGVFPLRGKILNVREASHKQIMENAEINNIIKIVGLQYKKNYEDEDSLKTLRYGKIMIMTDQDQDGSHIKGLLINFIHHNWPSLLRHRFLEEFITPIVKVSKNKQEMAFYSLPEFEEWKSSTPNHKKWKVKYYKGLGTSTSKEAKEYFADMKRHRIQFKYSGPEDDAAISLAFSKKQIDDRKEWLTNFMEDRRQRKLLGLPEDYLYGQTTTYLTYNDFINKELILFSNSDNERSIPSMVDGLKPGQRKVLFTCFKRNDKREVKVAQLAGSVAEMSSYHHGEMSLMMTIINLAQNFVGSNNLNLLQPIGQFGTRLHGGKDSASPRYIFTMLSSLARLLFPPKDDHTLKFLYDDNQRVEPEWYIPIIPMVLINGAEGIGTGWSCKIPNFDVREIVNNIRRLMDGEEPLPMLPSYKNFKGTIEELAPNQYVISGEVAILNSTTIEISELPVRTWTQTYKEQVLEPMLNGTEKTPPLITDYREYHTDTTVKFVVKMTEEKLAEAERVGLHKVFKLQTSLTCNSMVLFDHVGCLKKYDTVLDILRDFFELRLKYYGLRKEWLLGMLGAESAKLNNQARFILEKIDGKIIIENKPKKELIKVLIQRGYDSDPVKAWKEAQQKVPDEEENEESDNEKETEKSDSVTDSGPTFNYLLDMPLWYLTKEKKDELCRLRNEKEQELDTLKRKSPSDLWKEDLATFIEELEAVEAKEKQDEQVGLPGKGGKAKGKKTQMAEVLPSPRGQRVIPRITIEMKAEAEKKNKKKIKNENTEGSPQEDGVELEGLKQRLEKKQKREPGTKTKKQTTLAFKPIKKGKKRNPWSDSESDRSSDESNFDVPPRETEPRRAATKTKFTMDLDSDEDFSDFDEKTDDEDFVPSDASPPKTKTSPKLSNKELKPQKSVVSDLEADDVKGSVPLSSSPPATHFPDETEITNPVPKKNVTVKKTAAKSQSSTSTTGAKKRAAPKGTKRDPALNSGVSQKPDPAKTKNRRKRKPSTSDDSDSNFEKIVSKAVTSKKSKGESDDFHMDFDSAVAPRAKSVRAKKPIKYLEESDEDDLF
# Nuclear receptor subfamily 2 group C member 2 ligand-binding domain: Nuclear receptor subfamily 2 group C member 2, ligand-binding domain (Homo sapiens, UniProt P49116)
# Sequence of UniProt P49116 (whole entry, looked up): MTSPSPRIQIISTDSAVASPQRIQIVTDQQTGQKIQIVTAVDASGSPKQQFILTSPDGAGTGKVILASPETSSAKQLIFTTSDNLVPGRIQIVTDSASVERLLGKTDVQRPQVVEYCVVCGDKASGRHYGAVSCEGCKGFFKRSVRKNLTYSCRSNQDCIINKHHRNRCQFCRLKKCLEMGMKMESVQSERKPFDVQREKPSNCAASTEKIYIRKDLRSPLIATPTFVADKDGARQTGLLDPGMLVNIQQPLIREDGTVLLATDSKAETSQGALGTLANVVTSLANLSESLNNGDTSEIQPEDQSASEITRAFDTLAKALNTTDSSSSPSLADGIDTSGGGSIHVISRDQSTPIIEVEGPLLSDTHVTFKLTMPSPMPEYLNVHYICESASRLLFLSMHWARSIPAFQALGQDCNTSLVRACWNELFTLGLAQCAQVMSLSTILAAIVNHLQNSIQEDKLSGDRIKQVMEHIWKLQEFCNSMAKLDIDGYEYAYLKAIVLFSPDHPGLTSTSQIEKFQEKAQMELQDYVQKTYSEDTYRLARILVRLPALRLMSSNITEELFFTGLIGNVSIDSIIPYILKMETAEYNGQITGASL
# T1: riboswitch RNA yjdF aptamer (Bacillus subtilis); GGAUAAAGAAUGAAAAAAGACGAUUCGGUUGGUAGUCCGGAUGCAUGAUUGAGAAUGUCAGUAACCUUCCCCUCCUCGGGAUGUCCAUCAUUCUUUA
# Sequence of UniProt O76090 (whole entry, unmodified, looked up): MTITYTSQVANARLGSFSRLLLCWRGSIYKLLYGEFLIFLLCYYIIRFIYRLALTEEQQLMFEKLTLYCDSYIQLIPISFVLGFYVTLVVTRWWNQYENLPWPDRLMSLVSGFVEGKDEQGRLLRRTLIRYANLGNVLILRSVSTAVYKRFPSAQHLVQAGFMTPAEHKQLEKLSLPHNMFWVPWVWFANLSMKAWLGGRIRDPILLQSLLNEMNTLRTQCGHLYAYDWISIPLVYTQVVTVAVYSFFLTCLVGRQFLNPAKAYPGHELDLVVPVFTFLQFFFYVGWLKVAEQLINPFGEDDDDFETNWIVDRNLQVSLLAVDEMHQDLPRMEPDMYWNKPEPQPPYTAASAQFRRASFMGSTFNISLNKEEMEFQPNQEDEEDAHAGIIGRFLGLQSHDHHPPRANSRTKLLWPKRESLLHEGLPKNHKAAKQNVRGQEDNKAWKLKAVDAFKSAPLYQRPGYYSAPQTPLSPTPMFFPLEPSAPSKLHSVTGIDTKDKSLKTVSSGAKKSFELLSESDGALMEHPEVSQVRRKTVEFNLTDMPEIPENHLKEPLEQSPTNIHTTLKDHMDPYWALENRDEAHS
# Sequence of UniProt P27361 (whole entry, looked up): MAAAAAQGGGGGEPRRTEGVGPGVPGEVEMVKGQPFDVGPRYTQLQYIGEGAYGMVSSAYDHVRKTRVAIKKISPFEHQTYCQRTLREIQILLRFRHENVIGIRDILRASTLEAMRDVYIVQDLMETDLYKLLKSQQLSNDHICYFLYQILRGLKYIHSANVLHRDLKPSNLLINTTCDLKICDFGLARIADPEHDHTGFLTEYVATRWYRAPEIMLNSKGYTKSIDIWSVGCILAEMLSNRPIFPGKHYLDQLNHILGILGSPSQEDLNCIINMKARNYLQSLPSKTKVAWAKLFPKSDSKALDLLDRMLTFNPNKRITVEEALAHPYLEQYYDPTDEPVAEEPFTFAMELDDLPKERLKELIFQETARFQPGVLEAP
# Sequence of UniProt P51575 (whole entry, unmodified, looked up): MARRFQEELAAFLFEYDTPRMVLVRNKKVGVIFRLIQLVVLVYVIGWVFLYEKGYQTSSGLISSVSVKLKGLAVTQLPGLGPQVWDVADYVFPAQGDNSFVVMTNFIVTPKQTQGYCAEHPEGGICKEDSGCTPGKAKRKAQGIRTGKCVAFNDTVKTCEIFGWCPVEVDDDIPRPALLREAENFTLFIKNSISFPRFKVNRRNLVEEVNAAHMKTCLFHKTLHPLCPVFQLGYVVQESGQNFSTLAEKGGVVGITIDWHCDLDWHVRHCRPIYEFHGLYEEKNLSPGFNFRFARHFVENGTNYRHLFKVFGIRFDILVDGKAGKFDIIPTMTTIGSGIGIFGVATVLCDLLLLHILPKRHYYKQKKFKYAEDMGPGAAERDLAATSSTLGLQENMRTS
Structure (SMILES),tested on,test,system,setting,how to read,quantity,result
Nc1nc2c(ncn2[C@@H]2O[C@H](COP(=O)(O)O)[C@@H](O)[C@H]2O)c(=O)[nH]1,GUK1,"enzyme activity, NADH-coupled",,"250 µM, with: KCl 150 mM",,reaction velocity,0.0606 µM/s and 0.0691 µM/s and 0.0721 µM/s
Oc1ccc(/C=C/c2cc(O)cc(O)c2)cc1,"O-methyltransferase (Sorghum bicolor, UniProt A0A1B6PFV1)",isothermal titration calorimetry,,"concentration not given, apo protein",,binding stoichiometry,0.68 ± 0.013 sites
CCS(=O)(=O)c1nc(C2CC2)cc(C(F)(F)F)n1,XPO1,"nuclear export, high content imaging",HeLa Kyoto reporter,"15.8 µM, 2 h",,cells with nuclear reporter,5.81% and 4.97%
CCCCC[C@H](O)/C=C/[C@H]1C(=O)C[C@H](O)[C@@H]1C/C=C\CCCC(=O)O,"Prostaglandin D2 receptor (PTGDR, Homo sapiens, UniProt Q13258)",agonist,,10 µM,,activation,97.6%
CCC1(O)CCCN(C(=O)c2ccc(-c3ccc(F)c(NC(=O)CCl)c3)cc2)C1 (stereo not shown),"DNA dC->dU-editing enzyme APOBEC-3B, C-terminal domain (Homo sapiens, UniProt Q9UH17)","covalent modifier, intact protein mass spectrometry, item: adduct +26104 Da",,"125 µM, 1 h, 5-fold molar excess",,protein adduct,0%
O=[N+]([O-])c1cc(C(F)(F)F)ccc1NCc1ccsc1,"Endothelial PAS domain-containing protein 1, PAS-B domain (EPAS1, Homo sapiens, UniProt Q99814)","binding, ITC, reverse mode",,,,ΔH,-7.03 ± 0.12 kcal/mol
C=CC(=O)N1CCC(COCC(=O)N2CCN(c3nc(-c4cnc(N)nc4C(F)F)nc(N4CCOC[C@@H]4C)n3)CC2)CC1,"Receptor tyrosine-protein kinase erbB-3 (ERBB3, Homo sapiens, UniProt P21860)",KINOMEscan,,1 µM,,remaining binding,100%
Nc1ncnc2c1ncn2[C@@H]1O[C@H](COP(=O)(O)CP(=O)(O)OP(=O)(O)O)[C@@H](O)[C@H]1O,"P2X purinoceptor 1 (P2RX1, Homo sapiens, UniProt P51575, R292A)",calcium influx,,10 nM,reference: ionomycin response,calcium influx,0.434% and 1.91%
OC[C@H]1OC(O)[C@H](O)[C@@H](O)[C@@H]1O (stereo partly shown),"Hexokinase-3 (HK3, Homo sapiens, UniProt P52790)",isothermal titration calorimetry,,"concentration not given, 25 °C",,binding stoichiometry,0.65 ± 0.01
CCc1cnn2c(NCc3ccc[n+]([O-])c3)cc(N3CCCC[C@H]3CCO)nc12,"Bromodomain-containing protein 4 (BRD4, Homo sapiens, UniProt O60885)","19F NMR, item: tyrosine 97",,94 µM,reference: free protein,chemical shift change,-0.192 ppm
CC(=O)N[C@@H](CCCNC(=N)N)C(=O)N[C@H](C(=O)N[C@@H](CCCNC(=N)N)C(=O)N[C@@H](CCCNC(=N)N)C(=O)N[C@@H](CSSC(C)(C)C)C(=O)N[C@@H](CCCCNC(=O)c1ccc(F)cc1)C(=O)Nc1ccc2nc(C#N)sc2c1)C(C)C,"Furin (FURIN, Homo sapiens, UniProt P09958)","cleavage, substrate, HPLC",,"15 min, 37 °C",,Vmax,0.192 nmol/min/unit
C=C1CN(S(=O)(=O)c2ccc(C)cc2)CCCN(Cc2ccccc2)CCCN(S(=O)(=O)c2ccc(C)cc2)C1,"Protein transport protein Sec61 subunit alpha isoform 1 (Homo sapiens, UniProt P61619)","Sec61-dependent translocation, inhibitor, item: CD4 signal peptide-FLuc reporter",HEK293,"0.04 mM, 6 h",,FLuc/RLuc ratio,0.968
COCCC(=O)N1CCC(Oc2ccccc2)C1 (stereo not shown),"Coatomer subunit beta', WD repeat domain (Homo sapiens, UniProt P35606)","binding, affinity selection mass spectrometry",,,reference: other proteins in batch,log fold enrichment,-0.236
NCCS(=O)(=O)O,"Sodium- and chloride-dependent taurine transporter (SLC6A6, Homo sapiens, UniProt P31641, S402A)","binding, microscale thermophoresis",,"62.5 µM, room temperature, with: 50 nM labelled protein",higher = more binding,normalised MST signal,-0.0169
C[C@@H]1CCO[C@H]2Cn3cc(C(=O)NCc4ccc(F)cc4F)c(=O)c(O)c3C(=O)N12,"Equilibrative nucleoside transporter 4 (SLC29A4, Homo sapiens, UniProt Q7RTT9)",transport,"MDCK-II, transfected","50 µM, with: MPP+ 10 µM",,inhibition,-0.475%
CC1CCCN(C(=O)c2cc3ncccn3n2)C1 (stereo not shown),"YTH domain-containing protein 1 (Homo sapiens, UniProt Q96MU7)","binding, affinity selection mass spectrometry",,,reference: other proteins in batch,fold enrichment,1.39
CCCCCCCC(=O)c1cc(OC)c(OC)c(OC)c1CC(=O)OCC,COS-7,,,"10 µM, 24 h, 0.1% DMSO, unit not given",reference: vehicle control,necrotic cells,1.04 ± 0.25
Cc1ncccc1OC[C@@H]1CN(CCN2CCc3ccccc32)CCO1,"5-hydroxytryptamine receptor 4 (HTR4, Homo sapiens, UniProt Q13639)",radioligand binding,,concentration not given,,inhibition,28.8%
O=c1nc(SCc2cc(F)cc(C(F)(F)F)c2)nc(SCc2ccc3nc(Cl)ccc3c2)[nH]1,TOP2A,"DNA cleavage, competition with etoposide",,"125 µM, with: etoposide 50 µM",,linear DNA,10.9% and 9.36%
Cc1cn(-c2cc(NC(=O)c3ccc(C)c(Nc4nccc(-c5cccnc5)n4)c3)cc(C(F)(F)F)c2)cn1,Nuclear receptor subfamily 2 group C member 2 ligand-binding domain,SPR imaging,,600 nM,,koff,4.3e-09 s⁻¹
Cc1cccc(N2CC(C(=O)O)CC2=O)c1 (stereo not shown),"DDB1- and CUL4-associated factor 1 (DCAF1, Homo sapiens, UniProt Q9Y4B6)","binding, affinity selection mass spectrometry",,,reference: other proteins in batch,fold enrichment,0.896
Nc1ncnc2c1ncn2[C@@H]1O[C@H](COP(=O)(O)OP(=O)(O)O)[C@@H](O)[C@H]1O,GUK1,"binding, isothermal titration calorimetry",,"molar ratio 3.736, fitted curve",,ΔH,-0.0964 kcal/mol
O=C(COP(=O)(O)O)[C@@H](O)[C@H](O)[C@H](O)COP(=O)(O)O,"Desmoplakin (DSP, Homo sapiens, UniProt P15924)",thermal proteome profiling,HepG2 cell lysate,"concentration not given, 57 over 37 °C, mean",reference: compound over control,thermal stability ratio,0.537
CNCCCC[C@H](NC(=O)[C@@H](NC(=O)[C@H](CCCNC(=N)N)NC(=O)[C@H](C)N)[C@@H](C)O)C(=O)N[C@@H](CCC(N)=O)C(=O)N[C@H](C(=O)N[C@@H](C)C(=O)N[C@@H](CCCNC(=N)N)C(=O)N[C@@H](CCCCN)C(=O)N[C@@H](CO)C(=O)N[C@H](C(=O)NCC(=O)NCC(=O)N[C@@H](CCCCN)C(=O)N[C@@H](C)C(=O)N[C@@H](Cc1ccc(O)cc1)C(=O)O)[C@@H](C)O)[C@@H](C)O,"Transcriptional regulator ATRX (ATRX, Homo sapiens, UniProt P46100, F284Y/K251R)",isothermal titration calorimetry,,"concentration not given, pH 7.5, 25.0 °C",,binding entropy,1.56 cal/mol/K
Clc1ccc(C(c2c[nH]c3ccccc23)c2c[nH]c3ccccc23)cc1,COS-7,WST-8,,"30 µM, 24 h, 0.1% DMSO, unit not given",reference: vehicle control,metabolic activity,0.13 ± 0.01
O=c1nc(SCc2ccc(C(F)(F)F)cc2)nc(SCc2csc3ccc(Cl)cc23)[nH]1,TOP2A,DNA relaxation,,"7.8 µM, replicate 1",,relaxed DNA,60.8%
CN[C@@H]1[C@H](O)[C@H](NC)[C@H]2O[C@@]3(O)C(=O)C[C@@H](C)O[C@H]3O[C@@H]2[C@H]1O.Cl.Cl.O.O.O.O.O,Nuclear receptor subfamily 2 group C member 2 ligand-binding domain,SPR imaging,,600 nM,,koff,3.06e-07 s⁻¹
CN(C(=O)n1cnc(-c2ccc[n+]([O-])c2)c1)C1CCCCC1,"Fatty-acid amide hydrolase 1 (Faah, Mus musculus, UniProt O08914)","enzyme activity, inhibitor","NMRI mice, brain","oral, 8 h",,ED50,~0.027 mg/kg
Nc1[nH]nc2nnc(-c3c(-c4ccccc4)nn4ccccc34)cc12,"Mitogen-activated protein kinase 3 (MAPK3, Homo sapiens, UniProt P27361)",ADP-Glo,,"29 nM, with: MBP substrate",,kinase activity,83.2% and 62.2% and 115%
CC[C@H](C)[C@@H]1NC(=O)[C@H](CCCNC(=N)N)NC(=O)[C@@H]2CCCN2C(=O)[C@H](Cc2ccccc2)NC(=O)[C@H]([C@@H](C)O)NC(=O)CNC(=O)[C@H](CC(C)C)NC(=O)[C@@H]2CCCN2C(=O)[C@H]([C@@H](C)O)NC(=O)[C@H](Cc2c[nH]c3ccccc23)NC(=O)[C@H](Cc2ccc(O)cc2)NC(=O)[C@H]([C@@H](C)CC)NC(=O)[C@H]([C@@H](C)O)NC(=O)[C@H]([C@@H](C)O)NC(=O)[C@@H](Cc2ccc(O)cc2)NC(=O)CSC[C@@H](C(N)=O)NC(=O)[C@H](CCCNC(=N)N)NC1=O,"VPS35/VPS29 (Homo sapiens, UniProt Q96QK1+Q9UBQ0)","binding, ITC",,"25 °C, heterodimer",,-TΔS,1.4 ± 0.9 kcal/mol
CC(Nc1nc(N2CCCC2)nc2ccccc12)c1ccccc1 (stereo not shown),XPO1,"nuclear export, high content imaging",HeLa Kyoto reporter,"10.01 µM, 2 h",,cells with nuclear reporter,3.99% and 1.73% and 8.42%
C=CC(=O)N1CCC(C(=O)NCC(=O)N2CCN(c3nc(-c4cnc(N)nc4C(F)F)nc(N4CCOCC4)n3)CC2)CC1,"Epidermal growth factor receptor (EGFR, Homo sapiens, UniProt P00533, G719S)",KINOMEscan,,1 µM,,remaining binding,97%
CC[C@@H]1[C@H](F)C(=O)N[C@@H]1COc1nccc2cc(C(N)=O)c(OC)cc12,"Ribosomal protein S6 kinase alpha-3 (RPS6KA3, Homo sapiens, UniProt P51812)","ATP probe binding, KiNativ profiling, item: domain 2 Lys2 site",THP-1 cell lysate,0.01 mM,,inhibition,-9.7%
Cc1cc2nc3[nH]c(=O)[nH]c(=O)c3nc2cc1C,"T1, riboswitch RNA yjdF aptamer (Bacillus subtilis)",fluorescence titration,,with: 380 nM lumichrome,,Kd,1200 nM
CCCC[C@H]1CN(c2cccc(OC(F)(F)F)c2)C(=O)CN1Cc1cncn1Cc1ccc(C#N)cc1,Cryptococcus neoformans farnesyltransferase,"enzyme activity, inhibitor, fluorescence",,"with: 1 µM FPP, 0.5 µM dansylated peptide",,IC50,340 ± 220 nM
O=C1OC(c2ccccc2)=N/C1=C\c1ccc(O)c(O)c1,"Pancreatic alpha-amylase (Homo sapiens, UniProt P04746)","inhibitor, Lineweaver-Burk",,"300 ppm, with: starch substrate",,Km,569 µM
Nc1ccc(C(=O)O)cc1,"BEST1, with wild-type BEST1 (Homo sapiens, UniProt O76090, L234P)","ion current, whole-cell patch clamp",HEK293 co-expressing mutant and wild-type,"concentration not given, voltage 100 mV",,current density,15.6 pA/pF and 10.8 pA/pF and 24.6 pA/pF and 55.1 pA/pF and 31 pA/pF and 20.1 pA/pF
